Assay results of several laboratories.
Lines come from different studies, so protocols differ. Several values in a cell are separate wells, animals, samples, runs or records. ± marks the error that the study gave.
Genome polyprotein NS3 helicase domain: Genome polyprotein, NS3 helicase domain (Hepatitis C virus genotype 1b, UniProt Q9WMX2)
CALM1 Ca2+-bound N-lobe: Calmodulin-1, Ca2+-bound N-lobe (CALM1, Homo sapiens, UniProt P0DP23)
NAA80: N-alpha-acetyltransferase 80 (NAA80, Homo sapiens, UniProt Q93015)
Sequence of UniProt Q93015 (whole entry, looked up): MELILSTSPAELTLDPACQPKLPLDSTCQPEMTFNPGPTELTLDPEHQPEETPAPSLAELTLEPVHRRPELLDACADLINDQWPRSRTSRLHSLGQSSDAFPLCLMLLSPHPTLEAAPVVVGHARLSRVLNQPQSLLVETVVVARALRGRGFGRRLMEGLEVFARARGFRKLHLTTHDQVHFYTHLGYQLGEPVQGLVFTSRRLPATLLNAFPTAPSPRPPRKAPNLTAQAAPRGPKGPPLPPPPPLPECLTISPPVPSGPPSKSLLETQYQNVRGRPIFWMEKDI
WD repeat-containing protein 91 WD40 domain, residues 392–747: WD repeat-containing protein 91, WD40 domain, residues 392–747 (Homo sapiens, UniProt A4D1P6)
Sequence of UniProt A4D1P6 (whole entry, looked up): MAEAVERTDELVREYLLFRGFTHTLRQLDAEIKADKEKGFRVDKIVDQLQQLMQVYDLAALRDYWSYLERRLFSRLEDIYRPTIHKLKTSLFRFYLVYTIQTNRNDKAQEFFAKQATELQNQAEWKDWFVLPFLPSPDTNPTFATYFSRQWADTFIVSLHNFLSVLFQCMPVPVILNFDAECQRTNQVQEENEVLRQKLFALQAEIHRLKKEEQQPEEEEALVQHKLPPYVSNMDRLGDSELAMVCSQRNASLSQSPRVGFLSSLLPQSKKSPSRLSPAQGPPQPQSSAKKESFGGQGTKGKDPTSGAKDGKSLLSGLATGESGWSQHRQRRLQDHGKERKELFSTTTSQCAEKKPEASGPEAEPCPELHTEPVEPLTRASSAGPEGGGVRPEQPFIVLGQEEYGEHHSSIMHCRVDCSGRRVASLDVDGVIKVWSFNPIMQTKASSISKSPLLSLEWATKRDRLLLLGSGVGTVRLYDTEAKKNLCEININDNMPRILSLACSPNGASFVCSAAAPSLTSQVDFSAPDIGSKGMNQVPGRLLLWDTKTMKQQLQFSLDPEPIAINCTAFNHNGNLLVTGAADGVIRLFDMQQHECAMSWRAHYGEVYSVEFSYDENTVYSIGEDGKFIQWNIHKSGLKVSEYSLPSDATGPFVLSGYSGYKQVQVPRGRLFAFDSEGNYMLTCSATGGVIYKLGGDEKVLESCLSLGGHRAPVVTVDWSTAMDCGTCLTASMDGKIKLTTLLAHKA
Sequence of UniProt P18669 (whole entry, looked up): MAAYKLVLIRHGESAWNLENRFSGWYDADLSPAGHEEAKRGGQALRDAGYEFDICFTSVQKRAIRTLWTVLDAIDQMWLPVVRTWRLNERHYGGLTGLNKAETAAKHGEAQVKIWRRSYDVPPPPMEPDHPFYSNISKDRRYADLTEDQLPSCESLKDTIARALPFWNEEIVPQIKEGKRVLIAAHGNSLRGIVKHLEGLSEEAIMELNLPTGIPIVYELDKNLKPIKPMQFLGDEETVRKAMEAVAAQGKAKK
Sequence of UniProt Q16774 (whole entry, looked up): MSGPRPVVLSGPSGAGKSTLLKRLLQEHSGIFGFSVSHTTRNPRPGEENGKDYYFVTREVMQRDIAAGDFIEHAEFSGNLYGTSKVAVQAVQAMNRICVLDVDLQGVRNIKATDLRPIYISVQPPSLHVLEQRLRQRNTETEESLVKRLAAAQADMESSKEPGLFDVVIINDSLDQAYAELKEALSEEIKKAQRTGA
Sequence of UniProt P51575 (whole entry, unmodified, looked up): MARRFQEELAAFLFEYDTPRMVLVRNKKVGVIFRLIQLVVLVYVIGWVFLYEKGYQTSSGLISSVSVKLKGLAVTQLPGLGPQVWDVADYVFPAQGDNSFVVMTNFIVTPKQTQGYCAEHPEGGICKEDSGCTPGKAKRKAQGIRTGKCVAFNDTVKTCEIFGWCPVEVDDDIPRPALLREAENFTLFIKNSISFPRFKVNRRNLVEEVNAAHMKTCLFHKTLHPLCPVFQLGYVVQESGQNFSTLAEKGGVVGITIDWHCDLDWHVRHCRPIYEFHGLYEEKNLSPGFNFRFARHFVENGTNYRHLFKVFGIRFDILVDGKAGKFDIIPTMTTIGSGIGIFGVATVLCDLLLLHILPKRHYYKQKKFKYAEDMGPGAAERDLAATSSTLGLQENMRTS
Sequence of UniProt P00441 (whole entry, unmodified, looked up): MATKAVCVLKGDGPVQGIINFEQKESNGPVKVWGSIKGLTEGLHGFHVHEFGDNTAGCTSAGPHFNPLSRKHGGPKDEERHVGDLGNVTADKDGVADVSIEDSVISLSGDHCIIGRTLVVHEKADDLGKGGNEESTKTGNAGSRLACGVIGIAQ

`CN1C(C(=O)Nc2ccccn2)=C(O)c2sc(Cl)cc2S1(=O)=O` gave an activation of 0.73 fold (Nuclear receptor subfamily 4 group A member 3, ligand-binding domain (Homo sapiens, UniProt Q92570); reporter gene, Gal4 hybrid reporter; 30 µM; baseline: vehicle).
`O=C1NC(=O)C(c2ccccc2)(c2ccccc2)N1` gave an activation of 4% (Glutamate receptor 2 (Homo sapiens, UniProt P42262); ion current, agonist, SyncroPatch patch clamp; HEK293; 3 µM).
For `CC(C)COCC(CN(Cc1ccccc1)c1ccccc1)N1CCCC1` (stereo not drawn), the inhibition was 0% (Genome polyprotein NS3 helicase domain; DNA binding, inhibitor; hepatitis C virus; 100 µM, with: Cy5-dT15 DNA).
For `O=c1cc(-c2ccccc2)oc2ccc(O)cc12`, the selectivity ratio was 0.498 (Estrogen receptor (ESR1, Homo sapiens, UniProt P03372); array formation; PRL-HeLa; baseline: EC50 ERβ over EC50 ERα).
`CC(C)[N+](C)(CCOC(=O)C1c2ccccc2Oc2ccccc21)C(C)C` gave an inhibition of 0% (Genome polyprotein NS3 helicase domain; DNA binding, inhibitor; hepatitis C virus; 100 µM, with: Cy5-dT15 DNA).
The ΔS of `COc1cc(/C=C/c2cc(/C=C/c3ccc(O)c(OC)c3)n(-c3cccc([N+](=O)[O-])c3)n2)ccc1O` is reported as -195 ± 9.05 J/(mol·K) (haemin; binding, isothermal titration calorimetry; pH 7.4, 37 °C).
`COc1cc(F)ccc1-c1ncnc(Nc2cccc(C[S@](C)(=N)=O)c2)n1` has a remaining activity of 103% (PRKD1 (Homo sapiens, UniProt Q15139); kinase activity; 10 µM, with: 10 µM ATP).
For `[O-][S+]1CCCCS1` (stereo not drawn), “SOD1 dimer fraction” read 91.7% (SOD1 (Homo sapiens, UniProt P00441, G94A); LC-MS; human whole blood; 5000 µM, 1 h, 37 °C).
Under “normalised MST signal”, `NCCS(=O)(=O)O` is recorded as 0.0273 (SLC6A6 (Homo sapiens, UniProt P31641, S402A); binding, microscale thermophoresis; 31.3 µM, room temperature, with: 50 nM labelled protein; higher = more binding).
With `O=C(COP(=O)(O)O)[C@@H](O)[C@H](O)[C@H](O)COP(=O)(O)O` the enzyme activity was 236% and 224% and 209% (Phosphoglycerate mutase 1 (Homo sapiens, UniProt P18669); activator, sugar phosphate screen; concentration not given; baseline: untreated control).
For `CC1=C(C(=O)O)N2C(=O)[C@@H](NC(=O)[C@H](N)C3=CCC=CC3)[C@H]2SC1`, the inhibition was 0% (Genome polyprotein NS3 helicase domain; DNA binding, inhibitor; hepatitis C virus; 100 µM, with: Cy5-dT15 DNA).
With `N=C(N)Nc1nc2ccccc2[nH]1` the Hill coefficient was 0.9 ± 0.04 (HVCN1 (Homo sapiens, UniProt Q96D96, F149W); proton current, inhibitor, inside-out patch clamp).
`Cc1sc(NC(=O)c2ccccc2I)c(C(=O)O)c1C` has an EC50 of 197 µM (Voltage-gated potassium channel, KQT; KCNQ2(Kv7.2)/KCNQ3(Kv7.3) (KCNQ3/KCNQ2, Homo sapiens, UniProt O43525+O43526); G(V) shift, activator, two-electrode voltage clamp; Xenopus oocytes; pH 7.4, up to 100 µM, at -17.2 mV).
The Km of `CCOc1ccc2c(C(F)(F)F)cc(=O)oc2c1` is reported as 20.4 ± 3.1 µM (cytochrome P450 2B4 F297A (rabbit); O-deethylation, substrate).
`CC[C@H](C)[C@H](NC(=O)[C@H](CCSC)NC(=O)[C@H](CCSC)NC(=O)[C@H](C)NC(=O)[C@H](C)NC(=O)[C@H](Cc1ccc(O)cc1)NC(=O)[C@@H](NC(=O)[C@H](CCCCN)NC(=O)CNC(=O)[C@@H](NC(=O)[C@@H](NC(=O)[C@H](CCSC)NC(=O)[C@H](Cc1c[nH]cn1)NC(=O)CN)[C@@H](C)O)C(C)C)[C@@H](C)CC)C(=O)N[C@@H](C)C(=O)N[C@@H](CCC(=O)O)C(=O)N[C@@H](Cc1ccc(O)cc1)C(=O)N[C@@H](Cc1ccc(O)cc1)C(=O)N[C@@H](CCCNC(=N)N)C(=O)N[C@@H](CCC(N)=O)C(=O)N[C@@H](CO)C(=O)N[C@@H](CCCCN)C(=O)N[C@@H](C)C(=O)N[C@@H](CCCCN)C(=O)N[C@@H](CCCCN)C(=O)N[C@@H](CC(C)C)C(=O)N[C@@H](CCC(N)=O)C(=O)N[C@@H](C)C(=O)N[C@@H](CCSC)C(=O)N[C@@H](CCCNC(=N)N)C(=O)O` has a ΔH of -3.34 ± 1.15 kcal/mol (CALM1 Ca2+-bound N-lobe; binding, isothermal titration calorimetry; pH 7.4, 15 °C, N-lobe, CaV2.1 IQ domain, with: Ca2+).
For `N#Cc1cccc(C(=O)Nc2cc(-c3ccccc3)nn2-c2ccccc2)c1`, “maximum agonist efficacy” read 13% (Grm5 (Rattus norvegicus, UniProt P31424); calcium mobilization, agonist; HEK293 cells, low receptor expression; baseline: glutamate maximum).
`Cn1c(=O)c2[nH]c(-c3ccc(S(=O)(=O)O)cc3)nc2n(C)c1=O` has an inhibition of 0% (Genome polyprotein NS3 helicase domain; DNA binding, inhibitor; hepatitis C virus; 100 µM, with: Cy5-dT15 DNA).
For `CC(C)[C@H](N)C(=O)O`, the product formation was 1.58 µM (NAA80; substrate, DTNB; 2 mM, 30 min, 37 °C, with: acetyl-CoA 500 µM).
For `COCCC(=O)N1CCC(Oc2ccccc2)C1` (stereo not drawn), “log fold enrichment” read -0.0241 (WD repeat-containing protein 91 (Homo sapiens, UniProt A4D1P6); binding, affinity selection mass spectrometry; baseline: other proteins in batch).
`O=C(O)/C=C/c1ccc(O)c(O)c1`: protein level “inhibited” (Keap1 (Rattus norvegicus, UniProt P57790); western blot; H9c2; 120 µM).
With `CCCCSC[C@H]1CN(Cc2c[nH]c3c(N)ncnc23)C[C@@H]1O` the k4 was 0.015 min⁻¹ (Aminodeoxyfutalosine nucleosidase (Helicobacter pylori, UniProt Q9ZMY2); radiolabel chase ultrafiltration; pH 7.4, inhibitor off-rate).
`O=C(O)[C@@H]1CN(C(=O)c2cc(-c3ccccc3)c[nH]2)C[C@H]1c1ccc(Cl)cc1` has an SPR response of 12.4 RU and 17.3 RU (WD repeat-containing protein 91 WD40 domain, residues 392–747; binding, SPR single-concentration screen; 45 µM).
With `Nc1nc2c(ncn2[C@@H]2O[C@H](COP(=O)(O)O)[C@@H](O)[C@H]2O)c(=O)[nH]1` the reaction velocity was 0.0733 µM/s and 0.0864 µM/s and 0.079 µM/s (GUK1 (Homo sapiens, UniProt Q16774); enzyme activity, NADH-coupled; 1000 µM, with: NaCl 150 mM).
For `CC[C@H](C)[C@H](N)C(=O)O`, the product formation was 0.18 µM (NAA80; substrate, DTNB; 2 mM, 30 min, 37 °C, with: acetyl-CoA 500 µM).
`N#CC1CCN(C(=O)c2ccc(CSc3cc(Cl)ccc3Cl)cc2)CC1` has a binding of 35% and 28% (WD repeat-containing protein 91 WD40 domain, residues 392–747; SPR; 45 µM).
With `CCCCCCCCCCc1ccc([C@H]2CC[C@H]([N+](C)(C)CCC)CC2)cc1.[I-]` the Ki/Km ratio was 3.5 (SPHK1 (Homo sapiens, UniProt Q9NYA1); inhibitor, radiometric flash-plate; cell lysate; with: sphingosine 10 µM).
For `Nc1ncnc2c1ncn2[C@@H]1O[C@H](C[C@@H](N)CC[C@H](N)C(=O)O)[C@@H](O)[C@H]1O`, “ΔG of binding” read -7.29 kcal/mol (O-methyltransferase (Sorghum bicolor, UniProt A0A1B6PFV1); isothermal titration calorimetry; concentration not given, apo protein).
`CC(=O)c1cccc(OCc2cn(-c3ccc(C(=O)N4CCC(C#N)CC4)cc3)nn2)c1` has a binding of 46% and 61% (WD repeat-containing protein 91 WD40 domain, residues 392–747; SPR; 45 µM).
For `CC[C@H](C)[C@H](NC(=O)[C@H](CCCCN)NC(=O)CNC(=O)[C@@H](NC(=O)[C@@H](NC(=O)[C@H](CCSC)NC(=O)[C@H](Cc1c[nH]cn1)NC(=O)CN)[C@@H](C)O)C(C)C)C(=O)N[C@@H](Cc1ccc(O)cc1)C(=O)N[C@@H](C)C(=O)N[C@@H](C)C(=O)N[C@@H](CCSC)C(=O)N[C@@H](CCSC)C(=O)N[C@H](C(=O)N[C@@H](CCSC)C(=O)N[C@@H](CCC(=O)O)C(=O)N[C@@H](C)C(=O)N[C@@H](Cc1ccc(O)cc1)C(=O)N[C@@H](CCCNC(=N)N)C(=O)N[C@@H](CCC(N)=O)C(=O)N[C@@H](CO)C(=O)N[C@@H](CCCCN)C(=O)N[C@@H](C)C(=O)N[C@@H](CCCCN)C(=O)N[C@@H](CCCCN)C(=O)N[C@@H](CC(C)C)C(=O)N[C@@H](CCC(N)=O)C(=O)N[C@@H](C)C(=O)N[C@@H](CCSC)C(=O)N[C@@H](CCCNC(=N)N)C(=O)O)[C@@H](C)CC`, the ΔS was 14.4 ± 1.7 cal/mol/K (CALM1 Ca2+-bound N-lobe; binding, isothermal titration calorimetry; pH 7.4, 15 °C, N-lobe, CaV2.1 IQ domain, with: Ca2+).
`COC(=O)c1sc(-c2cccs2)cc1NC(=O)/C=C/C(=O)O`: FRET “no effect” (Fatty acid-binding protein, adipocyte, with HSL (Fabp4, Mus musculus, UniProt P04117); FABP4-HSL interaction; 1 µM, with: 20 µM forskolin).
`Cc1nc(N=Nc2cc(S(=O)(=O)[O-])c3cc([N+](=O)[O-])cc(S(=O)(=O)[O-])c3c2)c(COP(=O)([O-])[O-])c(C=O)c1O.[Na+].[Na+].[Na+].[Na+]` gave an inhibition of 58% (Genome polyprotein NS3 helicase domain; DNA binding, inhibitor; hepatitis C virus; 100 µM, with: Cy5-dT15 DNA).
For `N#Cc1cccc2c1CC[C@H]2NC(=O)c1ccc(Nc2ncnc3ccccc23)cc1`, the SPR response was 38.6 RU and 30.7 RU (WD repeat-containing protein 91 WD40 domain, residues 392–747; binding, SPR single-concentration screen; 45 µM).
With `CCCCC[C@H](CC(=O)NO)C(=O)N[C@H](C(=O)N1CCC[C@H]1CO)C(C)C` the inhibition was 0% (Genome polyprotein NS3 helicase domain; DNA binding, inhibitor; hepatitis C virus; 100 µM, with: Cy5-dT15 DNA).
With `Nc1ccc(C(=O)O)cc1` the current density was 0.11 pA/pF and -0.09 pA/pF and -0.07 pA/pF and -0.06 pA/pF and 0.03 pA/pF (BEST1, with wild-type BEST1 (Homo sapiens, UniProt O76090, Q293K); ion current, whole-cell patch clamp; HEK293 co-expressing mutant and wild-type; concentration not given, voltage 0 mV).
The remaining activity of `COc1cc(Nc2ncc3c(n2)-c2ccc(Cl)cc2C(c2c(F)cccc2OC)=NC3)ccc1C(=O)O` is reported as 57% (CHEK2; kinase activity; 1 µM).
For `c1ccc(C(NCc2cccnc2)(c2ccccc2)c2ccccc2)cc1`, the Hill coefficient was 0.88 (Potassium voltage-gated channel subfamily KQT member 1, with KCNE1 (KCNQ1, Homo sapiens, UniProt P51787); IKs tail current, whole-cell patch clamp; tsA201 with KCNQ1-KCNE1 fusion).
For `CC(=O)NCc1ccccc1N1CCN(C(=O)c2cc3cccn3cn2)CC1`, the SPR response was -6.2 RU and -1.3 RU (WD repeat-containing protein 91 WD40 domain, residues 392–747; binding, SPR single-concentration screen; 45 µM).
Under “STD amplification factor”, `Cc1nc(CSc2nc(SCc3ccc(C(C)C)cc3)nc(=O)[nH]2)cs1` is recorded as 1.24 (DNA topoisomerase 2-alpha, ATPase domain (TOP2A, Homo sapiens, UniProt P11388); 1H STD NMR, refers to: H2' and H4' protons; protein to ligand ratio 100).
With `Nc1ncnc2c1ncn2[C@@H]1O[C@H](COP(=O)(O)CP(=O)(O)OP(=O)(O)O)[C@@H](O)[C@H]1O` the calcium influx was 79% and 82.4% and 66.6% (P2X purinoceptor 1 (P2RX1, Homo sapiens, UniProt P51575, E282A); calcium influx; 100 nM; baseline: ionomycin response).

For quick reference, copied from above:
`O=C(O)[C@@H]1CN(C(=O)c2cc(-c3ccccc3)c[nH]2)C[C@H]1c1ccc(Cl)cc1` has an SPR response of 12.4 RU and 17.3 RU (WD repeat-containing protein 91 WD40 domain, residues 392–747; binding, SPR single-concentration screen; 45 µM).
For `c1ccc(C(NCc2cccnc2)(c2ccccc2)c2ccccc2)cc1`, the Hill coefficient was 0.88 (Potassium voltage-gated channel subfamily KQT member 1, with KCNE1 (KCNQ1, Homo sapiens, UniProt P51787); IKs tail current, whole-cell patch clamp; tsA201 with KCNQ1-KCNE1 fusion).
Under “STD amplification factor”, `Cc1nc(CSc2nc(SCc3ccc(C(C)C)cc3)nc(=O)[nH]2)cs1` is recorded as 1.24 (DNA topoisomerase 2-alpha, ATPase domain (TOP2A, Homo sapiens, UniProt P11388); 1H STD NMR, refers to: H2' and H4' protons; protein to ligand ratio 100).
